Results gathered from unrelated publications.
Lines come from different studies, so protocols differ. Numbers after ± are the reported error.

The IC50 of `CC1(C)C=Cc2c(O)cc(/C=C/c3ccc(O)cc3O)cc2O1` is reported as 46 µM (T.Tn; cell growth, MTT; 72 h).
`CSCC[C@H](NC(=O)[C@H](Cc1ccc(OP(=O)(O)O)cc1)NC(=O)CNC(=O)CNC(=O)[C@H](CC(=O)O)NC(=O)[C@H](CO)NC(=O)[C@H](CCC(=O)O)NC(=O)CN)C(=O)N[C@@H](CC(=O)O)C(=O)N[C@@H](CCSC)C(=O)N[C@@H](CO)C(=O)N[C@@H](CCCCN)C(=O)N[C@@H](CC(=O)O)C(=O)N[C@@H](CCC(=O)O)C(=O)N[C@@H](CO)C(=O)N[C@@H](CCCCNC(=O)CNC(=O)[C@H](CCCCN)NC(=O)[C@H](CCCNC(=N)N)NC(=O)[C@H](Cc1ccccc1)NC(=O)[C@H](CCCNC(=N)N)NC(=O)[C@H](CCCNC(=N)N)NC(=O)[C@H](CCCNC(=N)N)NC(=O)[C@H](CO)NC(=O)[C@H](Cc1ccc(O)cc1)NC(=O)[C@H](CO)NC(=O)[C@H](CC(C)C)NC(=O)[C@H](CCCNC(=N)N)NC(=O)[C@@H](N)CCCNC(=N)N)C(N)=O` gave an IC50 of roughly 51.6 µM (HPASMC; PDGF-induced Akt phosphorylation, inhibitor, Western blot, measured: phospho-Akt; 30 min preincubation, serum-free medium, together with: PDGF 1 ng/mL, 10 min).
`CC(C)c1cccc(C(C)C)c1-n1c(Cl)c(Cl)n(-c2c(C(C)C)cccc2C(C)C)c1=[Se].[Cl][Au]` has an IC50 of 1.3 ± 0.4 µM (H157 lung carcinoma cells; cell viability, MTT; 72 h).
With `CCOC(=O)c1[nH]c(C)c(/C=C/c2c(I)c(C)c3n2[B-](F)(F)[N+]2=C(C)C(I)=C(C)C2=C3c2cc(OC)cc(OC)c2)c1C` the IC50 was 4 µM (HEp-2; phototoxicity, CellTiter-Blue; together with: light 1.5 J/cm^2).
`CC1(C)OB(c2ccc(COC(=O)N[c-]3cccc3)cc2)OC1(C)C.[Fe+2].c1cc[cH-]c1` has an IC50 of 35.5 µM (BL2; cell growth or viability, MTT; 48 h).
`Cc1ccc(CC(=O)N(CCCn2ccnc2)c2nc3ccccc3s2)c(C)c1` gave an IC50 of 19.9 µM (HCT-116 3D tumour organoids; cytotoxicity; 0.4% DMSO; 72 h, 2% Matrigel).
For `N=C(N/N=C/c1ccc(Cl)cc1)N/N=C/c1ccc(Cl)cc1`, the IC50 was 48.5 ± 9.7 µM (hTERT-HPNE; cell growth, crystal violet; 72 h).
With `C1=[N+]2CCCC[N+]3=Cc4ccc5[n]4[Au-]23[n]2c1ccc2-c1nc2ccccc2nc1-5.F[P-](F)(F)(F)(F)F` the IC50 was 5 µM (NCI60 leukemia cell lines; mean of cell lines).
`Cc1c(-c2cccc(C3=NCCN3)c2)oc(-c2cccc(C3=NCCN3)c2)c1C` has an IC50 of 4.9 µM (RCC4; cell growth or viability, SRB).
The IC50 of `C=CC(=O)Nc1ccc(-c2c(-c3ccc(Oc4ccccc4)cc3)c3c(N)ncnc3n2C)cc1` is reported as 0.082 µM (JMSU-1; cell growth or viability, ATP luminescence; 96 h).
For `NC(=O)c1ccc(CN(Cc2ccccc2F)C(=O)c2ccc3nc(N)ccc3c2)cc1`, the IC50 was 9.23 µM (HCT-116 MTAP-deleted; 144 h).
`CCC(C)C1OC(=O)C(C)(C)C(=O)C(Cc2ccccc2)OC(=O)C(C(C)C)OC(=O)C(NC(=O)c2cccc(O)c2)C(C)OC1=O` (centres unmarked) gave an IC50 of greater than 20 µM (HCT-8; cell growth or viability, CCK-8; 72 h).
With `N=C(N/N=C/c1cncnc1)N/N=C/c1cncnc1` the IC50 was 398 ± 55.7 µM (hTERT-HPNE; cell growth, crystal violet; 72 h).
`COc1ccc(CS(=O)(=O)c2ccc3ccccc3c2)cc1NCC(=O)O` has an IC50 of 0.228 µM (SCC-15; cell growth or viability, MTS; 48 h).
With `COC(=O)[C@H]1[C@H]2C[C@H]3O[C@@]4(CCN3C[C@H]2C[C@@H](OC(=O)c2cc(OC)c(OC)c(OC)c2)[C@@H]1OC)C(=O)Nc1cc(OC)c(-c2ccccc2)cc14` the IC50 was 4.03 µM (NALM-6; cell growth or viability, trypan blue; 72 h).
`N#C/C(=C\c1cn(-c2ccccc2)nc1-c1ccc(Cl)cc1Cl)c1nc2ccccc2[nH]1` gave an IC50 of greater than 100 µM (ASPC1; cell growth or viability, ATP luminescence; 72 h).
`COc1c(O)c(Br)c2oc3c(Br)c(O)c(CC=C(C)C)c(O)c3c(=O)c2c1CC=C(C)C` gave an IC50 of 21.8 µM (BEAS-2B; cell growth or viability).
`C=CC(=O)Nc1ccc(F)c(-c2ncnc3[nH]cc(C(=O)OCC)c23)c1` gave an IC50 of 0.0031 µM (mouse CD4 T-cell blasts; CD25 upregulation; 24 h, together with: IL-2).
The IC50 of `Cc1cc(C#N)cc(C)c1Oc1cc(Nc2ccc(C#N)cn2)nc2ccncc12` is reported as greater than 127 µM (S102; 48 h).
With `c1ccc(-c2cc(-c3ccc(-n4cc(-c5ccc(-c6cccs6)s5)nn4)cc3)cc(-c3ccccn3)n2)nc1` the IC50 was greater than 25 µM (NHDF normal human fibroblasts; cytotoxicity, MTS; 72 h).
The IC50 of `C[C@@H](C[C@@H](O)[C@H](O)C(C)(C)O)[C@@H]1CC[C@]2(C)C3=CC[C@H]4C(C)(C)C(=O)CC[C@]4(C)[C@H]3CC[C@@]12C` is reported as 8.4 µM (HEp-2; cell growth or viability, MTT; 48 h).
The IC50 of `COC(=O)[C@H]1[C@H]2C[C@H]3O[C@@]4(CCN3C[C@H]2C[C@@H](O)[C@@H]1OC)C(=O)Nc1cc(OC)c(-c2ccc(C(C)(C)C)cc2)cc14` is reported as 4.45 µM (NALM-6; cell growth or viability, trypan blue; 72 h).
The IC50 of `Cc1nn(-c2ccc(S(=O)(=O)N[C@@H](CO)CC(C)C)cc2)c2nn3nnnc3nc12` is reported as 0.22 µM (HT-29; cell growth or viability, MTT; 72 h).
`COc1ccc(NS(=O)(=O)c2cccc(/C=C/C(=O)NO)c2)cc1` gave an IC50 of 0.09 ± 0.016 µM (MOPC-315; cell growth; 24 h).
The IC50 of `O=c1[nH]c2ccccc2nc1/C=C/c1ccccc1Br` is reported as 7.61 µM (B16-F10; cell growth or viability, MTT; 72 h).
`Cn1cnc(Cn2ccc3ccc(CNCc4[nH]c5ccccc5c4C4NC(=O)c5ccc(O)cc54)cc32)c1` (centres unmarked) has an IC50 of greater than 30 µM (SNU-1 (KRAS G12D); cell viability, CellTiter-Glo; 72 h).
`CC1(C)CCN(Cc2ccc(C(=O)NC[C@]3(O)CCCN(c4cc(NCc5ccccc5)ncn4)C3)c(O)c2)CC1` has an IC50 of 7 µM (MOLM-13; UPLC-MS/MS, measured: mRNA m6A level; 16 h).
`[Cl][Pt-]1([Cl])[S]C(Nc2ccccc2)=N[N+]1=Cc1cccs1` gave an IC50 of 6 µM (HEL human lung fibroblasts; cell proliferation).
`COc1ccc(NC(=O)c2ccc(NC(=O)CN3C(=O)S/C(=C\c4ccccc4OC)C3=O)cc2)cc1` has an IC50 of 9.17 to 47.2 µM (HT-29, A549, HCT-116; cell growth, MTT; range over cell lines).
The IC50 of `[Cl][Au].[Se]=c1n(C23CC4CC(CC(C4)C2)C3)ccn1C12CC3CC(CC(C3)C1)C2` is reported as 1.7 ± 0.2 µM (H157 lung carcinoma cells; cell viability, MTT; 72 h).
The IC50 of `O=C1CC[C@H](N2Cc3cc(-c4cnn5ccc(NCCc6ccccc6)nc45)ccc3C2=O)C(=O)N1` is reported as greater than 0.1 µM (MOLM-13; cell growth, CellTiter luminescence; 72 h).
`COc1cc(OC)cc(C2=C3C(C)=C(I)C(C)=[N+]3[B-](F)(F)n3c(/C=C/c4c[nH]c5ccccc45)c(I)c(C)c32)c1` has an IC50 of 2 µM (HEp-2; phototoxicity, CellTiter-Blue; together with: light 1.5 J/cm^2).
`COc1c(O)cc2oc3cc4c(c(O)c3c(=O)c2c1CCC(C)C)CC(O)O4` (centres unmarked) has an IC50 of 17.6 µM (BEAS-2B; cell growth or viability).
For `CCCCCCCCn1c2ccccc2c2cc(-c3cn(-c4ccc(-c5cc(-c6ccccn6)nc(-c6ccccn6)c5)cc4)nn3)ccc21`, the IC50 was greater than 25 µM (NHDF normal human fibroblasts; cytotoxicity, MTS; 72 h).
With `CC(C)=CCC1=C([O-])C(=O)c2ccccc2C1=O.CC(C)=CCC1=C([O-])C(=O)c2ccccc2C1=O.[Cu+2].c1ccc(-c2ccnc3c2ccc2c(-c4ccccc4)ccnc23)cc1` the IC50 was 0.6 ± 0.1 µM (A2780R cisplatin-resistant; cell viability, MTT; 24 h).
`C=C(C)C(=O)Nc1ccc(-c2c(-c3ccc(Oc4nccc(C)n4)cc3)c3c(N)ncnc3n2C)cc1` gave an IC50 of 0.77 µM (JMSU-1; cell growth or viability, ATP luminescence; 96 h).
For `C#CCOc1ccc(-c2n(CC(=O)O[C@@H]3C[C@H](C)CC[C@H]3C(C)C)c3ccccc3[n+]2C)cc1N=[N+]=[N-]`, the IC50 was greater than 5 µM (MEF; cell growth or viability).
`O=C(/C=C/c1cccc(S(=O)(=O)Nc2ccc(Cl)cc2F)c1)NO` has an IC50 of 1.03 ± 0.469 µM (MOPC-315; cell growth; 24 h).
`Clc1ccc(C=[N+]2N=C(Nc3ccccc3)[S][Pd-]2([Cl])[Cl])s1` has an IC50 of 42.8 µM (HEL human lung fibroblasts; cell proliferation).
The IC50 of `C=CC(=O)Nc1cc(Nc2nccc(-c3c(-c4ccc5ccccc5c4)n(C)c4ccccc34)n2)c(OC)cc1N(C)CCN(C)C` is reported as 0.266 µM (NCI-H1975; cell growth or viability, MTT; 72 h).
With `Cc1cc(C=O)cc(C)c1Oc1cc(Nc2ccc(C#N)cc2)nc2ccncc12` the IC50 was greater than 127 µM (S102; 48 h).
`CSc1nc(Nc2ccc(/C(C)=N/NC(=O)c3ccc([N+](=O)[O-])cc3)cc2)c(C#N)c(-c2ccccc2)n1` has an IC50 of 9.25 to 15.3 µM (HCT-116 and MCF7; cell growth, MTT; range over compound group).
For `Cc1ccc(C(C)C)cc1.Oc1ccccc1C=NNC1=Nc2ccccc2-c2[nH]c3ccc(Br)cc3c2C1.[Cl-].[Cl][Ru+]`, the IC50 was 1.1 ± 0.1 µM (NCI-N87; cytotoxicity, MTT; 96 h).
For `COc1cc(OC)cc(C2=C3C(C)=C(I)C(/C=C/c4c[nH]c5ccccc45)=[N+]3[B-](F)(F)n3c(/C=C/c4c[nH]c5ccccc45)c(I)c(C)c32)c1`, the IC50 was greater than 100 µM (HEp-2; phototoxicity, CellTiter-Blue; together with: light 1.5 J/cm^2).
For `[Ru+2].c1ccc(-c2cccc(-c3ccccn3)n2)nc1.c1cnc(-c2cnccn2)cn1.c1cnccn1`, the IC50 was 24.2 ± 2.1 µM (HL-60; cell viability; together with: light 22 J/cm^2).
The IC50 of `COc1cc(OC)cc(C2=C3C(C)=C(I)C(C)=[N+]3[B-](F)(F)n3c(/C=C/c4c[nH]c5ccc([N+](=O)[O-])cc45)c(I)c(C)c32)c1` is reported as 5 µM (HEp-2; phototoxicity, CellTiter-Blue; together with: light 1.5 J/cm^2).
The IC50 of `Cc1ccc(NC(=O)c2c(C)oc3ccc(O)c(CN4CCCCCC4)c23)cc1` is reported as 8.3 µM (LP-1; cell growth or viability, MTS; 72 h).
`CN1CCC(N[C@@H]2CCc3[nH]c4c(C(N)=O)ccc(-c5ccccc5Cl)c4c3C2)CC1` has an IC50 of 0.0031 µM (colorectal cancer organoid sample A; cell growth, CellTiter-Glo; 6 days).
The IC50 of `C=C(C)C(O)C(O)CC(C)C1CCC23CC12CCC1C2(C)CCC(O)C(C)(C)C2CC(OC(C)=O)C13C` (centres unmarked) is reported as greater than 10 µM (SCM-1; cytotoxicity, MTT).
The IC50 of `COc1cc(OC)c(-c2coc3c(CC=C(C)C)c(OC)cc(O)c3c2=O)cc1OC` is reported as greater than 100 µM (KKU100; cell growth or viability, MTT; 24 h).
The IC50 of `C[C@@H](NC(=O)Cc1ccc(Cl)c(SC2C(=O)CC(c3c(Cl)cccc3Cl)CC2=O)c1)c1cccc2ccccc12` (some centres unmarked) is reported as 23 µM (B16-F10; cell growth or viability, SRB; 72 h).
For `CC1=C2[O][Ru-]([Cl])[O+]=C2C=CN1CCCCCCN1C=CC2=[O+][Ru-]([Cl])[O]C2=C1C.Cc1ccc(C(C)C)cc1.Cc1ccc(C(C)C)cc1`, the IC50 was greater than 20 µM (KYSE70-oxo oxoplatin-resistant; crystal violet; 96 h).
`Cc1cc2nc(-c3ccc4c(c3)CN([C@H]3CCC(=O)NC3=O)C4=O)ccn2n1` gave an IC50 of greater than 0.1 µM (MOLM-13; cell growth, CellTiter luminescence; 72 h).
The IC50 of `COc1cc(/C=C/C(=O)/C=C(O)/C=C/c2ccc(OCC(=O)N3CCOCCOCCOCCOCC3)c(OC)c2)ccc1OCC(=O)N1CCOCCOCCOCCOCC1` is reported as 5.9 µM (U-251; cell growth or viability, SRB).
The IC50 of `COc1ccc(NC(=O)N/N=C2\CC3(CCN(C)CC3)Oc3ccccc32)cc1` is reported as 1.15 to 9.09 µM (MCF7, HCT-116, PC-3, A549; cell growth, MTT; range over cell lines).
`C/C1=C/C[C@H]2[C@@H]3[C@@H]([C@@]4(C)CO4)CC[C@@]3(C)CC[C@]2(C)C[C@H]2[C@@H](C)CC[C@@H]12` gave an IC50 of 19 µM (CT26; cell growth or viability, MTT; 72 h).
